Measured values from different studies.
Each numbered part is a random draw from the data of one study; scales do not carry over between parts. “And” joins repeats or separate records; there may be more than shown. Substitutions count along the parent as printed.

Series 1
Target: ABI1, truncated, D143A, DHFR fusion (Arabidopsis thaliana)
Technique: DHFR PCA, deep sequencing
Matrix: yeast
Setting: methotrexate growth selection, single substitutions
Added: (+)-ABA 0.032 µM
Relative to: wild-type fitted maximum
Direction: higher = stronger binding
Starting sequence: PYL1, truncated, DHFR fusion (Arabidopsis thaliana); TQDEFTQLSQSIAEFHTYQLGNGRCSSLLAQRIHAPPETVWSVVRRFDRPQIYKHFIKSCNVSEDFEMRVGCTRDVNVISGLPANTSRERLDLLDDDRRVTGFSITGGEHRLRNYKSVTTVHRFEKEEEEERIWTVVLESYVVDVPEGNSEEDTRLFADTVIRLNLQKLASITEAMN; partner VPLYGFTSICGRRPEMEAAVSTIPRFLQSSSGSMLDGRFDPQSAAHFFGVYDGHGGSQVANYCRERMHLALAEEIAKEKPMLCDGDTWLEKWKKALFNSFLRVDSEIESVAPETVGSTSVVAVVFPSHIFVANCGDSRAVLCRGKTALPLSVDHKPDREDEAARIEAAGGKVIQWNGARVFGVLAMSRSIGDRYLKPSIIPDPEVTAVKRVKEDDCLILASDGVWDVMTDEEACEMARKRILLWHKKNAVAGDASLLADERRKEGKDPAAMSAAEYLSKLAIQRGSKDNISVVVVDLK
For `S80D`, “relative binding score” read 6.01%.
For `S87L`, “relative binding score” read 30.5%.
For `V161A`, “relative binding score” read 5.39%.
Under “relative binding score”, `N114S` is recorded as 2.82%.
`V142K`: “relative binding score” -12%.
`L112D`: “relative binding score” -0.602%.
For `K168E`, “relative binding score” read -2.85%.
`T86P` — result for “relative binding score”: 2.53%.

Series 2
Target: RNA binding protein fox-1 homolog 2, RRM domain, GST-SBP tag (RBFOX2, Homo sapiens, UniProt O43251-10, residues 100-194)
Technique: RNA Bind-n-Seq
Form: RNA
Matrix: in vitro
Tested at: 365 nM
Setting: natural RNA segment, single round, ends assumed
Relative to: no-protein control
Direction: higher = stronger binding
All sequences stand within: GGGAGUUCUACAGUCCGACGAUC … UGGAAUUCUCGGGUGCCAA
Construct (chain): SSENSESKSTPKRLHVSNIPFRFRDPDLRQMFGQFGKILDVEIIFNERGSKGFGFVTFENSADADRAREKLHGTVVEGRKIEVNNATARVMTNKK
Under “RBNS enrichment (R)”, `GCUGUACUCAUUGGUAGUUUCAGUAUAUGUAAUGUGAGUUUAAAUAGUGAAAUUGUAUCUCAUAUUAACAUUUCAAAUGCUCAUAUUGAAAAUGGAAAAUAGUAAACACG` is recorded as 0.448.
`GUUCAUUUAGAAGGGAGCAAAGAGCGUUUUAAACUUUGAAAAGACCACAAAACAAACUGACCCUCCUAUUUUUAACUUGGAUACCUGCUAUUCUGCCAAAAGACAUUUUC` — result for “RBNS enrichment (R)”: 0.319.
Under “RBNS enrichment (R)”, `AAAUAUCAUGGAUUGAACCUCAUCAAUUGAUAGCAGUGAGUGACUGAAGCUUCCAAAUCAAGAAAAGCCGGCACCAAGAACUUCCAUUCUAAUCUAGAGCUGACCAGUUU` is recorded as 0.309.
`AAAUUGAGUCUGAAAGCCACAAGGACAGUCAACUCACAGCCAGCUCACAUUGCAGACACCAUUUUGGGCUCCCUGAUUAAAUGCAGAUCAGUUCUGCACACCUCCAGGGG`: “RBNS enrichment (R)” 0.283.
For `GGCAAGGGCUAUUUACCAGGGCUUAAAUGUUGUGUCUAGAAUUAAGUAUGGGCAUAAACUGGCUUCUGAAUCCCUUUCCAGAGUGUUGGAUCCAUUUCCCUGGUCUUGGC`, “RBNS enrichment (R)” read 0.263.
`UUCUUUCAUCUGUGGCUCAUCCCUGUAAAACUACGAAUCUGAGCCUCAAAUAAGCAGUAGUUUUUUUGUUGUUUAUUUUUAAUGAAACAGCUGUGUUAAGGCGCUGCUUC`: “RBNS enrichment (R)” 0.324.
`AAUGAAGGAUGUUUCCCGUAGGUUUUGUGCAGUCCAGUUGCCCUAAAGGACCAACCUGCCUUACGUAUCAGUUUAGUUCCUGAAAUCAGUGGAACUAUUCAAGGGACGGA`: “RBNS enrichment (R)” 0.341.
For `CUGGGCAACAUGGUGAAACCCGUCUCUACCAAACAGACAAAAAGCAGCCAGGCGUGGUGGCACAUCUGUGGUCCCAGCUACUUGAGAGGCUGAGCCAGGAGGAUCGCUUG`, “RBNS enrichment (R)” read 0.527.

Series 3
Target: ATF1, bZIP domain (human)
Technique: DHFR protein complementation
Matrix: yeast
Setting: single substitutions, most at no-binding floor
Relative to: wild-type JUN-FOS pair
Direction: higher = stronger binding
Starting sequence: JUN, bZIP domain (human); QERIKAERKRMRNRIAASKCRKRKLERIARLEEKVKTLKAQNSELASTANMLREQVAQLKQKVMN; partner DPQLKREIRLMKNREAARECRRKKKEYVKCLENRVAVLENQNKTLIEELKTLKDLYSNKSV
`A57Q` has a binding fitness of -1.43 natural log.
For `A40L`, the binding fitness was -1.49 natural log.
`L45P` has a binding fitness of -1.53 natural log.
`L31M` gave a binding fitness of -1.51 natural log.
`E54H` has a binding fitness of -1.53 natural log.
With `L38M` the binding fitness was -1.67 natural log.
With `Q58P` the binding fitness was -1.45 natural log.
`E33H` gave a binding fitness of -1.56 natural log.

Other studies, line by line
`Cc1ccc2[nH]c(CNCCCc3ccncc3)cc(=O)c2c1` gave a viability of 126% and 97.9% (normal organoid sample H; CellTiter-Glo; human, normal-adjacent epithelium; 1 µM; relative to: DMSO).
